Measured values gathered from unrelated publications.
A part holds a random share of what one study measured.

Study 1
Target: Fragile X messenger ribonucleoprotein 1, C-terminal low-complexity region (Fmr1, Mus musculus, UniProt P35922)
Technique: RNA Bind-n-Seq
Form: RNA
Matrix: in vitro
Tested at: 200 nM
Setting: whole 134-nt RNA, ends assumed
Added: 150 mM KCl
Relative to: input library
Direction: higher = stronger binding
Oligonucleotide	log2 enrichment
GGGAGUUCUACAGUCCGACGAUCUUGUUUAGCAAUCAAGGAGACCGCGAAGGCGUACAUUCCCGGGUGUUGCUUCCAGGAGAAACCCUGAACGGAGAGCUCGUCCUCUUACCAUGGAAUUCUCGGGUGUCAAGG	-0.594
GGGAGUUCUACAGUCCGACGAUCAGUCCUGUGCUACACAUCGUAUGUACCGAAUCGGGGAGGGGUGGGGAAAAAAAGGGGAAAGUAUUAUGUUACGCCGUUCGGAUCUGCACUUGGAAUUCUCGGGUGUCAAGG	0.807
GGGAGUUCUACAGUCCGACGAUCCUGUGCUACACAUCGUAUGUACCGAAUCGGAAAAAAAGGGGAAAAAAAGGGGAAAAAAAGGAAAGUAUUAUGUUACGCCGUUCGGAUCUGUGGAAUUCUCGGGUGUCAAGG	-0.778
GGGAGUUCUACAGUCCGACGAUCGUCCUGUGCUACACAUCGUAUGUACCGAAUCGGGGAAAAAGGGGUUUGGGGUUUGGGGAAAGUAUUAUGUUACGCCGUUCGGAUCUGCACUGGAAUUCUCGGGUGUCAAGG	0.765
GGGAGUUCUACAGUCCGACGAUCUGGCCCUGGUGGCAUGCGGGGAGGAAGAGGUGGCCUCAUGGAUCGUGGUGGUCCCGGUGCAAUGUUCAGAGGUGGCCGUGGUGGAGACAGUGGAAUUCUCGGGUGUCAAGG	-0.144
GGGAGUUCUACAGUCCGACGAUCUCCUCAAGUCCUGUGCUACACAUCGUAUGUACCGAAUCGGAAGGAAGGAAGGAAAGUAUUAUGUUACGCCGUUCGGAUCUGCACUUCCAGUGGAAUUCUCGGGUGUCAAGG	0.0611
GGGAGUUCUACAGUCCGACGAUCGCAGGAAGUAAAAACAAAUGGAAAUGCUUCGGAUAGUGGCAGGGGUGGGGGUUGCUAAGGAAAGGGUUGGAUGGGAGUGGGUAAAGAGUUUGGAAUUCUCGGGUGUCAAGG	0.195
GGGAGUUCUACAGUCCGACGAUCCAAGUCCUGUGCUACACAUCGUAUGUACCGAAUCGGGAAAAGGAAAAGGAAAAGGGAAAGUAUUAUGUUACGCCGUUCGGAUCUGCACUUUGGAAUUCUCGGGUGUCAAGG	-0.766
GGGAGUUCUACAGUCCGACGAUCUGUUGGAGGGACGAUGGUCCGCUCCGGGCAGGACCCUUACGCCCGCAACAAGUUCAACCAGGUGGAGAGUGAUAAGCUUCGAAUGGACAGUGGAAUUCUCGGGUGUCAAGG	-1.7
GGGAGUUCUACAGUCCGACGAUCCUCAAGUCCUGUGCUACACAUCGUAUGUACCGAAUCGGUGGAAAAAAAGGAGGAAAGUAUUAUGUUACGCCGUUCGGAUCUGCACUUCCAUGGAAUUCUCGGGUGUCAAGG	-0.0961

Study 2
Target: Histone acetyltransferase KAT6A, both winged helices, GST fusion (KAT6A, Homo sapiens, UniProt Q92794, residues 1-181)
Technique: protein binding microarray
Form: double-stranded DNA, one strand shown
Matrix: in vitro
Tested at: not given
Setting: 8-mer, flanks averaged, mean of 2 arrays, mostly near background
Relative to: not given
Direction: higher = stronger binding
Target sequence (chain): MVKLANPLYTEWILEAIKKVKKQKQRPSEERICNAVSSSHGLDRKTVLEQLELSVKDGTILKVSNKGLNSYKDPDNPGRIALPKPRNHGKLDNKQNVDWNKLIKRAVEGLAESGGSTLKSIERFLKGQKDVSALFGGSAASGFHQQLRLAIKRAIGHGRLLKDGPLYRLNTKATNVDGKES
Oligonucleotide	E-score
TCCACAAA	-0.11
GTTTCAGA	-0.0546
CCTTGACC	-0.0228
GATATTAC	0.0325
GTCAAGGA	-0.0379
CCCATCGA	-0.115
CTTAAATA	-0.0611
ATTCCGGG	0.0648
CATTTGCA	-0.0769
AAAGATAA	-0.044
AGGCGATA	-0.106
GCACAGCC	0.144
AAGTTTCT	-0.125
CCGGGGCC	0.0863
AATTGGCT	-0.139
CGCAACGA	0.102

Study 3
Target: Hepatocyte nuclear factor 3-alpha (Foxa1, Mus musculus, UniProt P35582, residues 1-468, full length assumed)
UniProt P35582, sequence (whole entry, looked up): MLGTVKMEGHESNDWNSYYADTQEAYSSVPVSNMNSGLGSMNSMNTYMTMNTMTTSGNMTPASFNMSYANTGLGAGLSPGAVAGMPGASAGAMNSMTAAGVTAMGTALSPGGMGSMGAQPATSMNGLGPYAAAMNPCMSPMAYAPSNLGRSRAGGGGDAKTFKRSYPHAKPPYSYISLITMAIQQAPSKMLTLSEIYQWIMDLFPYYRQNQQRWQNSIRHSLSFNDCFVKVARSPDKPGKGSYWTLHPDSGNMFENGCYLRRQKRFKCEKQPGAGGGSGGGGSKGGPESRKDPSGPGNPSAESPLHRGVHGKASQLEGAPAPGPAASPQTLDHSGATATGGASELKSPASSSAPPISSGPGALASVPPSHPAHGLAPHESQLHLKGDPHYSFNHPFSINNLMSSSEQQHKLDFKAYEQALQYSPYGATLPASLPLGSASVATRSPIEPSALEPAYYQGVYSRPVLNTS
Technique: EMSA with sequencing
Form: double-stranded DNA, one strand shown
Matrix: in vitro
Tested at: 10 and 20 nM
Setting: whole designed probe, mean of two concentrations, ends assumed
Relative to: negative control set to 0
Direction: higher = stronger binding
Oligonucleotide	normalised bound fraction [ratio]
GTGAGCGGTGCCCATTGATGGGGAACATCTTCCCCCTCTTCCTTGCCCCACCAGCTCACCTTCCCGGGTATCTGCAAATAAGGAAAATAAATAAAGCCGGCATTCGTTAACCCTCTTCTGGCGCAAACTGCACATTGGTCTGGATGAATCATGGTCCTTTGGCGACGCCAGGCTCCGGGAGAGCAAAGCACCGTGTCAGGGCCATGATCCGGGGTGGCCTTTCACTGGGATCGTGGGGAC	0.319
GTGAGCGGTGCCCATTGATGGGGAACTTCTTCACTCTTCTCAGGCTGCTGTAAAACAGAATTGATAAAACCACATGTTTCAACTATTATTACAGTTTACATTGTAAGGAAATTTGCCTATGTAAACAAAAAAATGGAGAAAAAAGAGACTCATGTAACTTCTTTTGTAAATAGATGTATTGGGTTAGTAGCAGAACAACTGGGATTGTGAAAACAAAAATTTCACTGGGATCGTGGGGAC	0.502
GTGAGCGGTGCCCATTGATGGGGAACTTCCACTTCCGGTCCGACTTCTAGCACCTCCCCTTATGGACTGTTGATATTGCGCATGCTCTAAATTAACTTGGAAGCCAATTTCAGCCCACAGTCATCTGGGAGCACACACATATTTAGAGACATCGTGCAGTTTCCGTAATCGGCGCTCACGGGCAGAGAATATAACCGCGCCCTTATGGTGTTTATTTGTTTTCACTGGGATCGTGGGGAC	0.202
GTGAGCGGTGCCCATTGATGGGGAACATCTTCCCCCTCTTCCTTGCCCCACCAGCTCACCTTCCCGGGTATCTGCAAATAAGGAAAATAAATAAAGCCGGCATTCGTTAACCCTCTTCTGGCGCAAACTGCTGTTTGCTCTGGATGAATCATGGTCCTTTGGCGACGCCAGGCTCCGGGAGAGCAAAGCACCGTGTCAGGGCCATGATCCGGGGTGGCCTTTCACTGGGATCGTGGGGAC	0.335
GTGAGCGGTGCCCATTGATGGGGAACTGATGAGAAACATGATAATTATTTAGTCTGAAAGGATCTTCTCCAATAATTTTTTTTTTCTCCACCCCCGTCGTGATACATTCCTGACTAAATGCAAACAAACCTAAATTGAGGGAAATTCTATGCAATACCTAACCATTATTCATCAAATGTACACAGGAGTACAGTGACACAATCATGGTTCACTGTAACCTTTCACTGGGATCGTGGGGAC	0.306
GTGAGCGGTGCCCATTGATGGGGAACATCTTCCCCCTCTTCCTTGCCCCACCAGCTCACCTTCCCGGGTCAAAGTAAACAAGTGTTTACTTTGAAGCCGGCATTCGTTAACCCTCTTCACGCGCATACTGCTGTTTACTTTGGATCTAACATGGTCCTTTGGCGACGCCAGGCTCCGGGAGAGCAAAGCACCGTGTCAGGGCCATGATCCGGGGTGGCCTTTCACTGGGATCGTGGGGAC	0.513

Study 4
Target: RNA binding protein fox-1 homolog 2, RRM domain, GST-SBP tag (RBFOX2, Homo sapiens, UniProt O43251-10, residues 100-194)
Technique: RNA Bind-n-Seq
Form: RNA
Matrix: in vitro
Tested at: 365 nM
Setting: natural RNA segment, single round, ends assumed
Relative to: no-protein control
Direction: higher = stronger binding
Residues (chain): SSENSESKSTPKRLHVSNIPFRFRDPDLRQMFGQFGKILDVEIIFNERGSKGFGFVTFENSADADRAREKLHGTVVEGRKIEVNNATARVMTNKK
Oligonucleotide	RBNS enrichment (R)
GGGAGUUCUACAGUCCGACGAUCGUGCUGCUACCUUGUAUGUUUACAUAAUGCUUUAGCCCAAGGACACAUCACCAACCCAUGGACUCGCAGACACCGGGGCUGGGUUUCUCUUUCCUCUUUUUGGAGAAAAGUGGAAUUCUCGGGUGCCAA	0.215
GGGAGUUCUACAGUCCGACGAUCAGAAUCAGUGAAAACAGCCUAACAAAACCUCUGACAUCAGUAUAUCAACUUUUAACAGCCCACUCACUGGCUUUUCUAAACUACCAAAAACCACCUGUAGGAUACUGCAUUGGAAUUCUCGGGUGCCAA	0.41
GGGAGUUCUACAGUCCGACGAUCAGUGAGGUUAAAUGCAUUCAGGAGGUUGUUUGUUUCUUCUAUCUAGUUUUAGAAUAAUAUUUCUUCGGCAAACCCUGCUAACUGCGGUUCACCCUUGAAAACGUUAAUCUUGGAAUUCUCGGGUGCCAA	0.297
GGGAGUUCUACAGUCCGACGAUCAUUUUACUUUUUUGUAUACAUAUGUGUAACUUACACUGUUAUUAAUUCAACGGAUAUAUAUUUAUCAAUGUAGACUUCUCUGUGAAGUCAAGGUUUAUUUUCACAUGAGUUGGAAUUCUCGGGUGCCAA	0.675
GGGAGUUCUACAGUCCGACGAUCCAUAUUUUGUUUGUUAUCACCAGAGAUGCCUGAACUCAGUUAAGCGAGCAAUUGCUAGUUGUCUUGAGGAGCAUGAGGAAUUCAGGAGCAGAAGGUCAGGAUAGCAUGAGUGGAAUUCUCGGGUGCCAA	30.2
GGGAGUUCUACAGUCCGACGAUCCCGCAGUGGCUAUCCUAGUGUACAUUCUCCUGGAGAGCAGCUUCUGUGGCUGAAUCAGGUGUCCAGGUGAAGACAGGCCCUGUCCUGGAACCUGGAAUCACACAUACCUCUGGAAUUCUCGGGUGCCAA	0.209
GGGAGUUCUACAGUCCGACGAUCCUGAGGUCAUGCGGUUGGACACUGAACUUGGUAAAGACGUCCUUCCCCAAGGAAGCCAUAAUGUGCAGAUGAACUGACCGAAGGAAAAGCUUGAGACAGCUUCCUGCGGGUGGAAUUCUCGGGUGCCAA	0.382
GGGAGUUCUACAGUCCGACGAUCCCCUCAGAGUCCUUUCUCACUGUAGUUCUGUGUGCCUGUUCCCUUCAUGCCUGAGUCAGGAAUACAUGGAGAGACAGCCUACAUCUGACAGACUCCCACAAAACAAACUGUGGAAUUCUCGGGUGCCAA	0.463
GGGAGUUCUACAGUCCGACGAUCUUGAUCUAAUUCUGUUUCUGGGGAGCAUCUUGUACUGUCACUGUUUUUGUACUAAAUCUUCAAAUAUUGUCUACUGUGUCAGGCAGAAACCGUUCUUAUCACGAGAAAGCUGGAAUUCUCGGGUGCCAA	0.54
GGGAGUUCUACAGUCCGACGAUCUGUUGUUCAGUCAGCAGCCCUAGUCAUGGUUGCCAAUAGUUUUCCCAAGCAAGGCGUCACCGAGGAGGAAGAAAGGGGGUACUCUCAUGUCUGCUUACUCACAAAAACAGUGGAAUUCUCGGGUGCCAA	0.211
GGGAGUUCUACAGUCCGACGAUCUAUUUAAAUGAAAUUUAAUUUGAAAAUAGAAAAUAAAAUUAGGUAAAUAUGACUGGCAACCUGAAUUUGAGUUGGGAUUCUUUGUGUAUUUUUCCCCCUUGAGGUUAUUGUGGAAUUCUCGGGUGCCAA	0.719
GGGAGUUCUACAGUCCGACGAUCCUGCAGCCUGGAGGUGUCCAAGGAUUCCCGUACAGUGACUGUGUCUCACCGCCCACAACCCUAUCGCUGGAGCUGUGAGAGGUUUUCUACCAGCCAGGUCUUAUGUUCCCUGGAAUUCUCGGGUGCCAA	0.382

For quick reference, copied from above (study 4):
Oligonucleotide	RBNS enrichment (R)
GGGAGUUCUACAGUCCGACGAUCAUUUUACUUUUUUGUAUACAUAUGUGUAACUUACACUGUUAUUAAUUCAACGGAUAUAUAUUUAUCAAUGUAGACUUCUCUGUGAAGUCAAGGUUUAUUUUCACAUGAGUUGGAAUUCUCGGGUGCCAA	0.675
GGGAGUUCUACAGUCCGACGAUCCAUAUUUUGUUUGUUAUCACCAGAGAUGCCUGAACUCAGUUAAGCGAGCAAUUGCUAGUUGUCUUGAGGAGCAUGAGGAAUUCAGGAGCAGAAGGUCAGGAUAGCAUGAGUGGAAUUCUCGGGUGCCAA	30.2
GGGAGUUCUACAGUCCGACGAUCCCGCAGUGGCUAUCCUAGUGUACAUUCUCCUGGAGAGCAGCUUCUGUGGCUGAAUCAGGUGUCCAGGUGAAGACAGGCCCUGUCCUGGAACCUGGAAUCACACAUACCUCUGGAAUUCUCGGGUGCCAA	0.209
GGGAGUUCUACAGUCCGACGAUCCUGAGGUCAUGCGGUUGGACACUGAACUUGGUAAAGACGUCCUUCCCCAAGGAAGCCAUAAUGUGCAGAUGAACUGACCGAAGGAAAAGCUUGAGACAGCUUCCUGCGGGUGGAAUUCUCGGGUGCCAA	0.382
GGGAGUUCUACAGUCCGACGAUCCCCUCAGAGUCCUUUCUCACUGUAGUUCUGUGUGCCUGUUCCCUUCAUGCCUGAGUCAGGAAUACAUGGAGAGACAGCCUACAUCUGACAGACUCCCACAAAACAAACUGUGGAAUUCUCGGGUGCCAA	0.463
